Assay results pooled from the literature.
Values joined by “and” are separate records of one study, mostly repeats; a detail may differ.
UCHL1: Ubiquitin carboxyl-terminal hydrolase isozyme L1 (UCHL1, Homo sapiens, UniProt P09936)
Chain of UniProt P09936 (whole entry, looked up): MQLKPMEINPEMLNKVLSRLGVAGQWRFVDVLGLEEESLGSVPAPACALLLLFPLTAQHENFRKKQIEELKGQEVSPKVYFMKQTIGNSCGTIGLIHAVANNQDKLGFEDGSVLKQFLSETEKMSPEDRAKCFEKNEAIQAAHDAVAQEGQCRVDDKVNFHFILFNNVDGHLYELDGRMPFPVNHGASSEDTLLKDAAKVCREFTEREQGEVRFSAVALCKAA
Chain of UniProt Q07794 (whole entry, looked up): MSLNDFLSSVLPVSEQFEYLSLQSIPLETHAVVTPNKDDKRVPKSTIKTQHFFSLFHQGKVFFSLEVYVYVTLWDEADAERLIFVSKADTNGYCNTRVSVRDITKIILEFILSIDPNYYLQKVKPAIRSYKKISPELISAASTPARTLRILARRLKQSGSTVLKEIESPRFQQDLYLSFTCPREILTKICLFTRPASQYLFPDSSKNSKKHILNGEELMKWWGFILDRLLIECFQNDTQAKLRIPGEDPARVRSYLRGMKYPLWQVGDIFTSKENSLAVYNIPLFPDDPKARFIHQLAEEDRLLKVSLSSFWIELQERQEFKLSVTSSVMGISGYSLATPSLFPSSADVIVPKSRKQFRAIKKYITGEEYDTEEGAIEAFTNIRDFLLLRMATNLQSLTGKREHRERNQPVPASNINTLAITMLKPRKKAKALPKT

Cc1cc(C)n(C(=S)[S][Au][PH](CCCCCC[PH]([Au][S]C(=S)n2nc(C)cc2C)(c2ccccc2)c2ccccc2)(c2ccccc2)c2ccccc2)n1
log10 TGI (HCC 2998; cell growth, NCI-60 screen; colon cancer): -6.1

C#C[C@@]1(O)[C@@H](CO)O[C@@H](n2cc(F)c3c(N)ncnc32)[C@@H]1O
TGI (HCC 2998; SRB; NCI-60 screen): 2.82 µM

CN1CCN(c2ccc3[nH]c(-c4ccc5[nH]c(-c6ccc(C(F)(F)F)cc6)nc5c4)nc3c2)CC1
growth percent (HCC 2998; SRB; 10 µM, 48 h): 87.2%

O=C1NC(=NCc2cccs2)S/C1=C\c1ccc2ncccc2c1
IC50 (HCC 2998; MTS; colon cancer): > 10 µM

O=C(Cc1ccccc1F)N1CCC2(CC1)N(Cc1cccc(F)c1)C(=O)C[S+]2[O-] (stereo not drawn)
labelling (UCHL1; covalent, intact protein LC-MS; 12.5 µM): 10.3%

C#C[C@@]1(O)[C@@H](CO)O[C@@H](n2cc(I)c3c(N)ncnc32)[C@@H]1O
TGI (HCC 2998; SRB; NCI-60 screen): 2.6 µM and 3.47 µM

O=c1ccn(Cc2cn(-c3cc4ccccc4oc3=O)nn2)c(=O)[nH]1
growth percentage (HCC 2998; NCI60 single-dose screen; 10 µM): 104%

CCCCN1CCN(c2ccc3[nH]c(-c4ccc5[nH]c(-c6ccc(OCC)cc6)nc5c4)nc3c2)CC1
growth percent (HCC 2998; SRB; 10 µM, 48 h): 90.3%

NNc1nc(-c2ccc(Cl)cc2)c2c(NC(=O)c3ccccc3)nnc-2[nH]1
cell growth (HCC 2998; SRB; 10 µM, NCI60 single-dose screen, colon cancer; reference: untreated): 107%

O=S(=O)(Nc1ccc(O)c(Br)c1)c1ccc(F)cc1
IC50 (Histone acetyltransferase RTT109, with Vps75 (Saccharomyces cerevisiae, UniProt Q07794); enzyme activity, inhibitor, HTS, CPM-based, dose response): > 125 µM

CCCCN1CCN(c2ccc3[nH]c(-c4ccc5[nH]c(-c6cc(OC)c(OC)c(OC)c6)nc5c4)nc3c2)CC1
growth percent (HCC 2998; SRB; 10 µM, 48 h): 100%

CCCC(CCC)C(=O)OCc1cn(-c2c3ccccc3nc3ccccc23)nn1
growth percentage (HCC 2998; NCI60 single-dose screen; 10 µM): 108%

O=C(Nc1nnc2n3c(=S)[nH][nH]c3nc(-c3ccc(Cl)cc3)c1-2)c1ccccc1
cell growth (HCC 2998; SRB; 10 µM, NCI60 single-dose screen, colon cancer; reference: untreated): 109%

N#CC(=Cc1ccc(OC(F)F)c(Cl)c1)C(N)=O
labelling (UCHL1; covalent, intact protein LC-MS; 12.5 µM): 33%

CCCCN1CCN(c2ccc3[nH]c(-c4ccc5[nH]c(-c6ccc(C(F)(F)F)cc6)nc5c4)nc3c2)CC1
growth percent (HCC 2998; SRB; 10 µM, 48 h): -84%

CC1CCC(C(C)C)C(OC(=O)Cn2c(-c3ccc(Br)cc3)[n+](C)c3ccccc32)C1.[Cl-] (stereo not drawn)
inhibition (Trypanosoma cruzi; reporter translation, Renilla luciferase mRNA translation; cell-free extract; 40 µM; reference: DMSO): 22.7%

CCN(CC)c1ccc(C=NNC(=O)CSc2nc3ccccc3c(=O)n2Cc2ccc(S(N)(=O)=O)cc2)c(O)c1
TGI (HCC 2998; NCI five-dose screen): > 100 µM

COc1ccc(OC)c(-c2nc3ccc(-c4nc5ccc(N6CCN(C)CC6)cc5[nH]4)cc3[nH]2)c1
growth percent (HCC 2998; SRB; 10 µM, 48 h): 102%

CSc1nc(-c2ccc(Cl)cc2)c2c(NC(=O)c3ccccc3)nnc-2[nH]1
cell growth (HCC 2998; SRB; 10 µM, NCI60 single-dose screen, colon cancer; reference: untreated): 107%

CCOc1ccc(-c2nc3cc(-c4nc5cc(N6CCN(C)CC6)ccc5[nH]4)ccc3[nH]2)cc1OCC
growth percent (HCC 2998; SRB; 10 µM, 48 h): -15.9%

O=C(Nc1nnc2n3c(Cc4ccccc4)n[nH]c3nc(-c3ccc(Cl)cc3)c1-2)c1ccccc1
cell growth (HCC 2998; SRB; 10 µM, NCI60 single-dose screen, colon cancer; reference: untreated): 108%

O=C1NC(c2ccccc2)(c2ccccc2)C(=O)N1Cc1cn(-c2cc3ccccc3oc2=O)nn1
growth percentage (HCC 2998; NCI60 single-dose screen; 10 µM): 107%

O=C(Nc1nnc2n3c(nc(-c4ccc(Cl)cc4)c1-2)SCC3=O)c1ccccc1
cell growth (HCC 2998; SRB; 10 µM, NCI60 single-dose screen, colon cancer; reference: untreated): 87.1%

Cn1cncc1C1=CN(c2ncnc3[nH]cnc23)CCS1
TGI (HCC 2998; colon cancer): > 200 µM

Some of these lines once more:
CCCCN1CCN(c2ccc3[nH]c(-c4ccc5[nH]c(-c6cc(OC)c(OC)c(OC)c6)nc5c4)nc3c2)CC1
growth percent (HCC 2998; SRB; 10 µM, 48 h): 100%

CCCC(CCC)C(=O)OCc1cn(-c2c3ccccc3nc3ccccc23)nn1
growth percentage (HCC 2998; NCI60 single-dose screen; 10 µM): 108%

O=C(Nc1nnc2n3c(=S)[nH][nH]c3nc(-c3ccc(Cl)cc3)c1-2)c1ccccc1
cell growth (HCC 2998; SRB; 10 µM, NCI60 single-dose screen, colon cancer; reference: untreated): 109%

N#CC(=Cc1ccc(OC(F)F)c(Cl)c1)C(N)=O
labelling (UCHL1; covalent, intact protein LC-MS; 12.5 µM): 33%
